Measured values gathered from unrelated publications.
Each numbered part is a random draw from the data of one study; scales do not carry over between parts. Substitutions count along the parent as printed.

Sample 1
Target: ABI1, truncated, D143A, DHFR fusion (Arabidopsis thaliana)
Technique: DHFR PCA, deep sequencing
Medium: yeast
Setting: methotrexate growth selection, single substitutions
With: (+)-ABA 4.8 µM
Baseline: wild-type fitted maximum
Reading: higher = stronger binding
Parent: PYL1, truncated, DHFR fusion (Arabidopsis thaliana); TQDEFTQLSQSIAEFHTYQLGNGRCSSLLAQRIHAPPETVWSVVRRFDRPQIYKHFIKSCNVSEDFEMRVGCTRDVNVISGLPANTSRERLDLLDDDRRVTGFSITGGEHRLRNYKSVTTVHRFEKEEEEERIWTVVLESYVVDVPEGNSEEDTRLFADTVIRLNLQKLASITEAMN
Variant | relative binding score
F15K | -0.679%
T39R | 67.5%
T101I | 81.8%
V121N | -16.2%
L169E | -10.5%
R132G | 101%
Q2P | 74.5%
R90A | 9.62%
E152R | 41.9%
K168Q | 62.9%
E38A | 51.9%
T86V | 46.4%
A13H | 62.1%
I172E | 17.6%
Q7H | 70%
F56V | -6.44%
K168W | 65.2%
I57A | 9.1%

Sample 2
Target: Ras GTPase-activating protein-binding protein 1, full length (G3BP1, Homo sapiens, UniProt Q13283)
Sequence of UniProt Q13283 (whole entry, looked up): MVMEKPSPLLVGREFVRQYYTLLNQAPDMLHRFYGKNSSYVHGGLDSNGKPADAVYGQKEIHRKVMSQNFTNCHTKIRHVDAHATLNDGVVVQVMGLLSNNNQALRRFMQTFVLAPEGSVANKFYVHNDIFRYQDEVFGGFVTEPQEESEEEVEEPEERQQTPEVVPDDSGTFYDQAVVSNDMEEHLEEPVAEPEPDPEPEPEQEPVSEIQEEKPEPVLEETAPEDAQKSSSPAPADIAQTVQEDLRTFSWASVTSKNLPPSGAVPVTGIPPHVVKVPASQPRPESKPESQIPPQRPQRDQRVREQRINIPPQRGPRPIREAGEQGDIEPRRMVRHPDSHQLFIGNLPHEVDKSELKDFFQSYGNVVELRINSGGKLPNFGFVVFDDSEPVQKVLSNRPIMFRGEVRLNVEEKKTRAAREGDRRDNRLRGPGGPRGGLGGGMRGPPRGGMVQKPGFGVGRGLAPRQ
Technique: RNA Bind-n-Seq
Form: RNA
Medium: in vitro
Tested at: 200 nM
Setting: whole 134-nt RNA, ends assumed
With: 150 mM LiCl
Baseline: input library
Reading: higher = stronger binding
Each molecule: 7-deaza-guanosine replaces G
Shared flanks, not repeated: GGGAGUUCUACAGUCCGACGAUC … UGGAAUUCUCGGGUGUCAAGG
Strand | log2 enrichment
CUCAAGUCCUGUGCUACACAUCGUAUGUACCGAAUCGGUGGAAAAAGGUUUGGAAAGUAUUAUGUUACGCCGUUCGGAUCUGCACUUCCA | -0.106
AGGCCCUGGUGGCAUGCGGGGAGGAAGAGGUGGCCUCAUGGAUCGUGGUGGUCCCGGUGGAAUGUUCAGAGGUGGCCGUGGUGGAGACAG | -0.138
CAAGUCCUGUGCUACACAUCGUAUGUACCGAAUCGGGAAAAAAAGGGAGGGUGGGAAAGUAUUAUGUUACGCCGUUCGGAUCUGCACUUC | -0.0642
GUCCUGUGCUACACAUCGUAUGUACCGAAUCGGGGUUUGGGGUUUUUUUGGGGAGGGGAAAGUAUUAUGUUACGCCGUUCGGAUCUGCAC | 0.478
UCAAGUCCUGUGCUACACAUCGUAUGUACCGAAUCGGAAGGGGAAGGGAAGGGGAAAGUAUUAUGUUACGCCGUUCGGAUCUGCACUUCC | -0.243
CAAGUCCUGUGCUACACAUCGUAUGUACCGAAUCGGGCCCGGCCCGGGGCCCGGGAAAGUAUUAUGUUACGCCGUUCGGAUCUGCACUUC | -1.58
CUCAAGUCCUGUGCUACACAUCGUAUGUACCGAAUCGGUUUGGUUUUUGGUGGAAAGUAUUAUGUUACGCCGUUCGGAUCUGCACUUCCA | 0.583
UCCUCAAGUCCUGUGCUACACAUCGUAUGUACCGAAUCGGAAAGGUGGUGGAAAGUAUUAUGUUACGCCGUUCGGAUCUGCACUUCCAGC | -0.124
UAACUUUAGAGGAGGAUCUGAUGGAUAUGGCAGUGGACGUGCAUUUGGGGAUGGCUAUAAUGGGUAUGGAGGAGGACCUGGAGGUGGCAA | -1.01
ACCAUGCAGGUGGGCAUCUUUGGGAAGUGGGGCAAGGGGGGGAUAGGGAGGGGGGUAACACUUUGGGAACAGGUGGUCCCAGGUAGUUUC | 0.17
AAGUCCUGUGCUACACAUCGUAUGUACCGAAUCGGGGUGGGGUUUGGGGUUUGGGGAAAGUAUUAUGUUACGCCGUUCGGAUCUGCACUU | -1.17

Sample 3
Target: RING finger protein unkempt homolog, zinc fingers 1-6, GST-SBP tag (UNK, Homo sapiens, UniProt Q9C0B0, residues 30-357)
Sequence of UniProt Q9C0B0 (30-357, looked up): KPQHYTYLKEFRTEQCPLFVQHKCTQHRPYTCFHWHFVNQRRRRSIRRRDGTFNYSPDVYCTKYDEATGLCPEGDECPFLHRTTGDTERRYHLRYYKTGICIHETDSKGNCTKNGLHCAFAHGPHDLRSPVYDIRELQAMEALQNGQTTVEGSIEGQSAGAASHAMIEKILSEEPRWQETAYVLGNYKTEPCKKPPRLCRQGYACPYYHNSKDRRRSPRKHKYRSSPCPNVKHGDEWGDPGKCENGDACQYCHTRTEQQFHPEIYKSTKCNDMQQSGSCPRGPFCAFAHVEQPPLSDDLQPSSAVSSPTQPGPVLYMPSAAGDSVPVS
Technique: RNA Bind-n-Seq
Form: RNA
Medium: in vitro
Tested at: not given
Setting: RNA with constant flanks, human-mouse chimeric sites, ends assumed
Baseline: input RNA pool
Reading: higher = stronger binding
Shared flanks, not repeated: GGGAGUUCUACAGUCCGACGAUC … CAACAGAGGAUUGAGCAUCA
Strand | bound/input enrichment
AAAGAGUGGAUAGAAUGUGCACACGGGAUCGGUUAUACCCGGGCGAAAAAGGAGUGCAAGAUAGAGUUCGAUGACUUCGAAGAGUGCUUGCUUCGGUACAAAACGAUGAGGCGAAUGCAU | 0.42 ratio
UCUGGUCAUACUCGUGCGUAUGGUGUUUGCUUUGUUGACACUUCACUGGGCAAGUUUUUCAUCGGCCAGUUUUCGGAUGACCGCCACUGUUCCAGAUUUAGGACGCUAGUGGCUCACUAU | 0.269 ratio
GUAGCUGGGACUACAGAAAUGCUGGUAAUUUCAGUCACUUGCUGAUGACUUCUGAUGUCCCAGCAAAUGUUGGCAUUGUUGACUGCUGAGAAGAUACACUCGCAAGGAUACAGCAGUGGU | 0.0955 ratio
UAAGUUAUUUUGUACAGCUUUGUAAAUUCUUAACAUUAAUUUGUAAACAUGUUUAUUUUUUUUAGAUAAUUUGGUUCAUUAAGUACAUAGCUAAGGUAAUGAACAUCUUUUUCAGUAAUU | 7.57 ratio
AGGAGGAGGUUAAAGGGUGAGAGUGGGGUGGAAGACUGUGUCAUGGCUCUGGAGACAUUGUUUAGUGUCCUGCUUUCUCUGUGCAGACUGAUGGCCCCUUACACGCCCUUUCUGACUGAG | 0.0853 ratio
UAAGUUAAGCUUUUAAUCUUUGUAAAUUCUUAACAUUUUUAUAUUGCCAUGUUUAUUUUGUUUGGGUAAUUUGGUUCAUUAAGUACAUAGCUAAGGUACAUCUUUCAUUUUUCAGUAAUU | 1.28 ratio
UAACCACAUCAAGAUGGUUGGGAAGCUGAAGCAGAACUUACUAUUGGCAUGUCUGGUGAUUAGUUCUGUGACCGUGUUUUACCUGGGCCAGCAUGCCAUGGAGUGCCAUCACCGAAUAGA | 0.232 ratio
UUCAAAGGCUGUGUUAUCUGUGUCAUUUCAUAAGUAACUCUGGGGGAGGGAAAUUCUGUUCUUUUGUUUAAUUUUCCCCCAAAUGAAGCCAAAGUGUGUGUUGAAGAACUGAGAAAAAAU | 0.311 ratio
UCCUUGGACCCCAGUCAUAUAGGUGACCUGCAGAAAGCAGACACCAGUAGUCAAGGUGCUUUAGUGUUUCUCUCAAAGGACUACGAAAUAGAAAAUCAAAAUCCUCUGGCCUCUCCUACG | 2.24 ratio
CGCUUGGAUGAGGCGGGUGUCACAGAUGAAGUGCUAGAUUCUGCCAUGCAAGCCUUCCUUCUGGAGGUCAUUGUUAAGCAUGGGGAGCCGGCACCUUAUUUAUGUAAUAAAGAUCCUUUU | 0.094 ratio
CGCUGGCCCAAGCUGAUGGACUCUGAUGGCCUCCAUCUCUCAGGCACGUUUGCCUUCUCUUAGUCCCUGUUUUCGGGAUGUUAUGAAUCUCAGUACUGUGGUUUGAAAGCACCAGCUUUG | 0.155 ratio

Sample 4
Target: RNA binding protein fox-1 homolog 2, RRM domain, GST-SBP tag (RBFOX2, Homo sapiens, UniProt O43251-10, residues 100-194)
Technique: RNA Bind-n-Seq
Form: RNA
Medium: in vitro
Tested at: 365 nM
Setting: natural RNA segment, single round, ends assumed
Baseline: no-protein control
Reading: higher = stronger binding
Shared flanks, not repeated: GGGAGUUCUACAGUCCGACGAUC … UGGAAUUCUCGGGUGCCAA
Construct (chain): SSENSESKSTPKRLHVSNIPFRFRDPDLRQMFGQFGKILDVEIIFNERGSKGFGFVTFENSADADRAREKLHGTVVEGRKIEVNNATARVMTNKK
Strand | RBNS enrichment (R)
CUGGGCUGGGGACCAGGAAGAAGUCACAAGUGGUGGGAGUAUCCUAGGGACAUGAGUCGUGCCCAGGGUAUAAACCCAAACCUGGUCAUUUCUUGAACAGUCUGUGAAUA | 0.487
AGGACCUCCCCACACACCCACACGAUGCCACAGGUCAGGGGGCUGUGCCUGACUAGGGAGCCCUCCCAUUGCCUUCCUGGCCCGGGAUAGAAGAGGGGAGGUAAGUCUGG | 0.574
UACACACACACAGGGACAUCAACAAGGGUAGUACACACACUAUACUGAGAACCAAAGCAACCCCAGGUGCAUAAUUGUAUAACUUACAGUCUCCCAUCAAGACUACCUCA | 0.367
UCAGUUCUUUUAAAAUUUCUUCAAGAAAAUCCAGGCUAUCACAUAGUCUUUCUGUGUGACUUAUUAGGAGAUAGGAAGAGCAUUGGGAAACUUGCACAGCUAGCUAUGCA | 0.565
ACACUCAGUGAGACUGGGCCCUGGCCUUGUAAGCUCUGUGAUGUCAGCCUGCCCAUGGCACCCCAAAAGCAAGAUCCUGGAGAUCACAUUUGAUCCUACCAAAACCACUG | 0.342
UUUACCCAGGCCGGGUCAUCUAGCAAGGGAGCUGGUCGUGGAGUGCGGCAGAGACCUCUCCACCCAGAAGCCCUUUCUGUGUCCCCCUCUGCCUCCCUUCUUCCCUCCUC | 0.381
UGCCAAAGGGAUGUGUUAGAAGGCUGCCUUCUCAUGCGCAUUGUCACUUGGAUCUUGUGGUGAGGACGGCCCCAUCUUUCUUGCCACAGAUUGAGGCCACUUUUGAGCAA | 0.257
CAUCUCGCCUGGGGACCUGGUUUAUCUGUCCUCAUUCUCCCCAUUCGAUUGUGGUGUCUUGGCGACUAAUCAGUUUCAUUGUAUAACCAGCCAGAUCUUCACCUCUUCUU | 0.43
CAUUGUGACAUACAAUUUAAACACUCAUUGGGCUGCUGUGCUGUGUAAAGAAAGAGGGACUGCAGUGUAGCUCCUUUAGUGGUGAGACAUGAAGGCUGUGGCAAUCUCAA | 0.569
UUUUAACGACACCCCUACUCCGUAUCCCUCCCCAUCCCAUGCUGCCAACUUCUAACCACAAUAGUGACUCUGUGCUUGUCUGUUUAGUUCUGUGUGUAAAUGAAAUGUGG | 0.685
GUUGUGGAAAAUCUGGAUCAUUGACCUCUGUGCUUUCAUUCCUAGAGAUGUUUUAUAGUUACAUGAGCAAAAGCUGUUGCCCCAAAGUGAUGGCCCUGGAGGCGGGGCUG | 0.571
UGGCACUCUCAUGUUGGAACUUCUUUUGGGCUCAUGCUCAGGCCUUUUUUGGAUCACUAAGGACUAUGACCUCUGAGUAACCUGAUGACCUGAGAAAGAGUAAGGAGGCC | 0.39

Repeated from above (sample 4):
Strand | RBNS enrichment (R)
ACACUCAGUGAGACUGGGCCCUGGCCUUGUAAGCUCUGUGAUGUCAGCCUGCCCAUGGCACCCCAAAAGCAAGAUCCUGGAGAUCACAUUUGAUCCUACCAAAACCACUG | 0.342
UUUACCCAGGCCGGGUCAUCUAGCAAGGGAGCUGGUCGUGGAGUGCGGCAGAGACCUCUCCACCCAGAAGCCCUUUCUGUGUCCCCCUCUGCCUCCCUUCUUCCCUCCUC | 0.381
UGCCAAAGGGAUGUGUUAGAAGGCUGCCUUCUCAUGCGCAUUGUCACUUGGAUCUUGUGGUGAGGACGGCCCCAUCUUUCUUGCCACAGAUUGAGGCCACUUUUGAGCAA | 0.257
CAUCUCGCCUGGGGACCUGGUUUAUCUGUCCUCAUUCUCCCCAUUCGAUUGUGGUGUCUUGGCGACUAAUCAGUUUCAUUGUAUAACCAGCCAGAUCUUCACCUCUUCUU | 0.43
CAUUGUGACAUACAAUUUAAACACUCAUUGGGCUGCUGUGCUGUGUAAAGAAAGAGGGACUGCAGUGUAGCUCCUUUAGUGGUGAGACAUGAAGGCUGUGGCAAUCUCAA | 0.569
UUUUAACGACACCCCUACUCCGUAUCCCUCCCCAUCCCAUGCUGCCAACUUCUAACCACAAUAGUGACUCUGUGCUUGUCUGUUUAGUUCUGUGUGUAAAUGAAAUGUGG | 0.685
GUUGUGGAAAAUCUGGAUCAUUGACCUCUGUGCUUUCAUUCCUAGAGAUGUUUUAUAGUUACAUGAGCAAAAGCUGUUGCCCCAAAGUGAUGGCCCUGGAGGCGGGGCUG | 0.571
UGGCACUCUCAUGUUGGAACUUCUUUUGGGCUCAUGCUCAGGCCUUUUUUGGAUCACUAAGGACUAUGACCUCUGAGUAACCUGAUGACCUGAGAAAGAGUAAGGAGGCC | 0.39
